Experimental data pooled from the literature.
Compare with care: the assays were run in different laboratories. ± marks the error that the study gave.

Compound | assay | system | setting | scale | measurement | result
CN1CC[C@@H](c2c(O)cc(O)c3c(=O)cc(-c4ccc(C(F)(F)F)cc4Cl)oc23)[C@@H]1CO | measured: Anorexia | AML | oral, 150 mg, intermittent dosing |  | patients with adverse event | 0%
CN1CCN(c2ccc(Nc3nccc(-c4ccc(C#N)cc4)n3)cc2C(F)(F)F)CC1 |  | zebrafish embryos | 25 µM, 5 d |  | toxicity | 0%
CC(C)c1nc(N(C)S(C)(=O)=O)nc(-c2ccc(F)cc2)c1/C=C/[C@@H](O)C[C@@H](O)CC(=O)O |  | healthy human subjects | oral, dose not given, study CL-0537 safety set |  | incidence of Myalgia | 0%
CC(=O)c1c(C)c2cnc(Nc3ccc(C4CCN(CCS(C)(=O)=O)CC4)cn3)nc2n(C2CCCC2)c1=O |  | human patients, plasma | oral, 100 mg twice daily, day 21 multiple doses |  | clearance | 1480 mL/min
CC(C)n1c(C2CCNCC2)nc2c([N+](=O)[O-])c(Br)c(Br)cc21 |  | patients with AML | 125 mg, drug-induced liver injury |  | AE leading to discontinuation | 2%
COc1cc2c(Oc3ccc4[nH]c(C)cc4c3F)ccnc2cc1OCC1(N)CC1 |  | paediatric recurrent refractory sarcoma | 12 mg |  | grade 3 gingival bleeding | 0%
Cc1cc(NC2CCN(C(=O)OC3CCN(C(=O)/C=C/CN(C)C)C3)CC2)n2ncc(C(C)C)c2n1 (stereo not shown) |  | rat | oral, daily for 4 weeks, body surface area normalised |  | MTD | 36 mg/m2
CCS(=O)(=O)Nc1ccc(Oc2ccc(F)cc2F)c(-c2cn(C)c(=O)c3[nH]ccc23)c1 | fungal infection leading to discontinuation | human, relapsed/refractory AML | oral, dose not given |  | treatment-emergent adverse events | 0%
CC1(C)[C@@H](O[C@H]2O[C@H](C(=O)O)[C@@H](O)[C@H](O)[C@H]2O[C@@H]2O[C@H](C(=O)O)[C@@H](O)[C@H](O)[C@H]2O)CC[C@]2(C)[C@H]3C(=O)C=C4[C@@H]5C[C@@](C)(C(=O)O)CC[C@]5(C)CC[C@@]4(C)[C@]3(C)CC[C@@H]12 |  | Sprague Dawley rat, plasma | oral, 10 g lyophilized powder/kg, high dose |  | Vz/F | 0.37 ± 0.12 L/kg
C[C@]1(CO)Cc2ncn(-c3ccc(C#N)c(Cl)c3)c2C(=O)O1 |  | human, plasma | 3 mg once daily, fasted |  | half-life at steady state | 5.2 h
CO[C@H]1C[C@@H]2CC[C@@H](C)[C@@](O)(O2)C(=O)C(=O)N2CCCC[C@H]2C(=O)O[C@H]([C@H](C)C[C@@H]2CC[C@@H](OC(=O)NCCOCCOCCOCCOCCOCCOCCOCCOCCC(=O)N3CCc4cc(Cn5nc(-c6ccc7oc(N)nc7c6)c6c(N)ncnc65)ccc4C3)[C@H](OC)C2)C[C@@H](O)[C@H](C)/C=C(\C)[C@@H](O)[C@@H](OC)C(=O)[C@H](C)C[C@H](C)/C=C/C=C/C=C/1C |  | patients with advanced solid tumours | intravenous, 12 mg weekly, grade 3 or higher |  | headache incidence | 0%
Cc1cccc(Cn2nc(C3CC3)c3c(NC(=O)c4cnc5cc(OCCN6CCN(C)CC6)ccn45)cccc32)n1 | measured: Pruritus | human advanced solid tumours | oral, 400 mg, all-causality |  | adverse events incidence | 0%
CC1(C)C(C=C(Cl)Cl)C1C(=O)OC(C#N)c1ccc(F)c(Oc2ccccc2)c1 (stereo not shown) |  | pooled human liver microsomes |  |  | CLint | 0.664 mL/min/mg protein
C=CCNc1c(O)cc2c(O)c1C[C@@H](C)C[C@H](OC)[C@H](O)[C@@H](C)/C=C(\C)[C@H](OC(N)=O)[C@@H](OC)/C=C\C=C(/C)C(=O)N2 |  | unresectable or metastatic STS, GIST, other | intravenous, 400 mg/m^2 |  | patients with myalgia TEAE | 34%
COc1ccc(-c2c(-c3ccc(C#N)c(F)c3)nc(N3CCC(N)CC3)n(C)c2=O)cc1F | measured: Fatigue/asthenia | neuroendocrine neoplasm patients | oral, 60 mg, grade 3 to 4, dose expansion |  | treatment-related adverse event incidence | 0%
CCN(CCO)CCCC(C)Nc1ccnc2cc(Cl)ccc12 (stereo not shown) |  | newly diagnosed glioblastoma patients | oral, 400 mg/dose, grade 1, together with: radiotherapy plus temozolomide |  | blurred vision patients | 14%
Clc1ccccc1-c1ccccc1 |  | PDMS-water partitioning | PCB compilation | relative to: maximum over minimum K | literature range factor | 1.2
CCCCCCCCCCCCCCCC(=O)N[C@@H](CCC(=O)NCCCC[C@H](NC(=O)[C@H](CC(=O)O)NC(=O)[C@H](CO)NC(=O)[C@@H](NC(=O)[C@H](Cc1ccccc1)NC(=O)[C@@H](NC(=O)CNC(=O)[C@H](CCC(N)=O)NC(=O)[C@H](CO)NC(=O)[C@@H](N)Cc1c[nH]cn1)[C@@H](C)O)[C@@H](C)O)C(=O)N[C@@H](CO)C(=O)N[C@@H](CCC(=O)O)C(=O)N[C@@H](Cc1ccc(O)cc1)C(=O)N[C@@H](CC(C)C)C(=O)N[C@@H](CC(=O)O)C(=O)N[C@@H](CO)C(=O)N[C@@H](CCC(=O)O)C(=O)N[C@@H](CCCNC(=N)N)C(=O)N[C@@H](C)C(=O)N[C@@H](CCCNC(=N)N)C(=O)N[C@@H](CC(=O)O)C(=O)N[C@@H](Cc1ccccc1)C(=O)N[C@H](C(=O)N[C@@H](C)C(=O)N[C@@H](Cc1c[nH]c2ccccc12)C(=O)N[C@@H](CC(C)C)C(=O)N[C@@H](CCC(=O)O)C(=O)N[C@@H](C)C(=O)NCC(=O)NCC(=O)O)C(C)C)C(=O)O |  | human, CrCl ≥30 to <45 mL/min | sc, 100 µg single dose |  | treatment-related adverse events | 72.7%
CCCCC/C=C\C/C=C\CCCCCCCCC(CCCCCCCC/C=C\C/C=C\CCCCC)OC(=O)CCCN(C)C | measured: IL-6, MCP-1, ALT, AST | BALB/c mice | intravenous, 6 mg/kg siRNA, 6 h cytokines, 24 h ALT/AST, LNP formulation |  | tolerability | not toxic
CC/C(=C(\c1ccccc1)c1ccc(OCCN(C)C)cc1)c1ccccc1 |  | CD-1 mouse, male, plasma | intraperitoneal, 10 mg/kg |  | Tmax | 2 h
O=C(O)CCCOc1ccc(F)cc1-c1cc(-c2ccccc2C(F)(F)F)n(-c2ccccc2)n1 |  | female Crl:CD(SD) rats, spleen | intravenous, 25 µg/kg, 1 d |  | relative organ weight | 0.22 ± 0.03 g%
CC(C)C[C@@H]1NC(=O)CNC(=O)[C@H](CC(N)=O)NC(=O)[C@H](CCCNC(=N)N)NC(=O)[C@H]([C@@H](C)O)NC(=O)[C@@H]2CSSC[C@@H]3NC(=O)[C@H]([C@@H](C)O)NC(=O)CNC(=O)CNC(=O)[C@H](C(C)C)NC(=O)[C@@H]4CSSC[C@H](NC(=O)[C@H]([C@@H](C)O)NC(=O)[C@H](CSSC[C@H](NC(=O)[C@H](C(C)C)NC(=O)[C@@H]5CCCN5C1=O)C(=O)NCC(=O)N[C@@H](CCC(=O)O)C(=O)N[C@@H]([C@@H](C)O)C(=O)N4)NC(=O)CNC(=O)[C@H](CCCCN)NC(=O)[C@H]([C@@H](C)O)NC(=O)[C@H](CC(N)=O)NC3=O)C(=O)N[C@@H](CO)C(=O)N[C@@H](Cc1c[nH]c3ccccc13)C(=O)N1CCC[C@H]1C(=O)N[C@@H](C(C)C)C(=O)N2 | HPLC | ammonium bicarbonate 0.1 M | 180 µM, 14 days, pH 9.0, 37 °C, deamidation stability |  | remaining peptide | 59.6 ± 1.7%
c1ccc2c(c1)cc1ccc3cccc4ccc2c1c34 |  | polyethylene-water partitioning | PAH compilation | relative to: maximum over minimum K | literature range factor | 31
C[C@@H](NC(=O)N1C(=O)[C@H](Cc2ccnc(N)c2)[C@H]1C(=O)O)C1CCCCC1 |  | healthy Chinese adult volunteers | continuous intravenous infusion, dose not given, 5.0 days, CTCAE 5.0, all doses |  | administration site extravasation | 2.5%
Clc1cc(Cl)c(-c2cccc(Cl)c2Cl)cc1Cl |  | polyethylene-water partitioning | PCB compilation | relative to: maximum over minimum K | literature range factor | 1
C[C@H]1COCCN1c1nc(NCc2cccnc2C(F)(F)F)c2cccnc2n1 |  | anaesthetized rat | intravenous, 30 mg/kg | relative to: control | BP change | -13.9%
O[C@H]1CCCN[C@@H]1CCCn1cnc2c(Cl)c(Cl)ccc21 |  | healthy human | oral, 150 mg multiple doses |  | diarrhoea prevalence | 29.2%
C=CC(=O)N1CC[C@H](n2nc(C#Cc3cc(OC)cc(OC)c3)c3c(N)ncnc32)C1 |  | patients with advanced solid tumours | oral, dose not given, Vomiting, any grade, QD, all patients |  | adverse drug reaction incidence | 18.6%

Some of these lines once more:
Compound | assay | system | setting | scale | measurement | result
C[C@H]1COCCN1c1nc(NCc2cccnc2C(F)(F)F)c2cccnc2n1 |  | anaesthetized rat | intravenous, 30 mg/kg | relative to: control | BP change | -13.9%
O[C@H]1CCCN[C@@H]1CCCn1cnc2c(Cl)c(Cl)ccc21 |  | healthy human | oral, 150 mg multiple doses |  | diarrhoea prevalence | 29.2%
C=CC(=O)N1CC[C@H](n2nc(C#Cc3cc(OC)cc(OC)c3)c3c(N)ncnc32)C1 |  | patients with advanced solid tumours | oral, dose not given, Vomiting, any grade, QD, all patients |  | adverse drug reaction incidence | 18.6%
